Results gathered from unrelated publications.
CYP3A4: Cytochrome P450 3A4 (CYP3A4, Homo sapiens, UniProt P08684)
UniProt P08684, sequence (whole entry, unmodified, looked up): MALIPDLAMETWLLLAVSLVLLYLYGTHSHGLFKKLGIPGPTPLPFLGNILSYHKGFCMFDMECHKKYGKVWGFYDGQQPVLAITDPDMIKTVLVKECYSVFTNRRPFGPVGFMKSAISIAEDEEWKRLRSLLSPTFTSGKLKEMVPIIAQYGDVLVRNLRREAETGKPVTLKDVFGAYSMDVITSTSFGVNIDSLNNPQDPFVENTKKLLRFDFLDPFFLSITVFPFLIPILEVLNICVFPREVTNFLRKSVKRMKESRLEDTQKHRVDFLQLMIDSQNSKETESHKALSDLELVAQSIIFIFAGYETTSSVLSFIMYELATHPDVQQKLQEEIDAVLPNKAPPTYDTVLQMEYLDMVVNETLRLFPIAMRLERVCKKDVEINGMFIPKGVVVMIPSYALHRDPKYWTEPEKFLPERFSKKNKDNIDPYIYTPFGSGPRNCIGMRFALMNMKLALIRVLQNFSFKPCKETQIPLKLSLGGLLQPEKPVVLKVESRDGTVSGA
CYP3A4 S18F: Cytochrome P450 3A4 (CYP3A4, Homo sapiens, UniProt P08684, S18F)

| SMILES | target | test | test system | conditions | measurement | result |
| --- | --- | --- | --- | --- | --- | --- |
| Cc1noc(C)c1Cn1cc(N2C(=O)CN(Cc3cccc(O)c3)C2=O)cn1 | CYP3A4 | enzyme activity, inhibitor, fluorescence | Sf9 | 10 µM | inhibition | 1% |
| CC(=O)[C@H]1CC[C@H]2[C@@H]3CCC4=CC(=O)CC[C@]4(C)[C@H]3CC[C@]12C | CYP3A4 S18F | substrate, UV-Vis spin-shift titration | nanodiscs | two substrates bound | high-spin fraction | 37% |
| Cc1noc(C)c1Cn1cc(N2C(=O)N(Cc3cccc(O)c3)C(C)(C)C2=O)cn1 | CYP3A4 | enzyme activity, inhibitor, fluorescence | Sf9 | 10 µM | inhibition | 26% |
| COc1cc2c(Oc3ccc4[nH]c(C)cc4c3F)ccnc2cc1OCC1(N)CC1 | CYP3A4 | substrate |  | 1 µM, 60 min, pH 7.4, 37 °C | intrinsic clearance | 0.32 µL/min/pmol |
| CCCCc1oc2ccc(NS(C)(=O)=O)cc2c1C(=O)c1ccc(OCCCN(CCCC)CCCC)cc1 | CYP3A4 S18F | substrate, HPLC | nanodiscs with rat CPR | pH 7.4, 37 °C, 2 substrate molecules bound | product formation rate | 8.2 min⁻¹ |
| NC(=O)N1c2ccccc2C=Cc2ccccc21 | CYP3A4 S18F | substrate | nanodiscs with CPR | two substrates bound | NADPH oxidation rate | 124 nmol/nmol P450/min |
| C#C[C@]1(O)CC[C@H]2[C@@H]3CCc4cc(O)ccc4[C@H]3CC[C@@]21C | CYP3A4 |  | human, plasma | oral, dose not given, day 21, geometric LS mean, together with: norgestimate, EDP-305 2.5 mg | AUC(0-t) | 1.35 ng·h/mL |
| CC1=N[C@]2(C(=O)CO)[C@@H](C[C@H]3[C@@H]4C[C@@H](O)C5=CC(=O)C=C[C@]5(C)[C@H]4[C@@H](O)C[C@@]32C)O1 | CYP3A4 | enzyme activity, inhibitor | pooled human liver microsomes | 30 min preincubation with NADPH, together with: testosterone substrate | IC50 | > 50 µM |
| N#C[C@H](C[C@@H]1CCCNC1=O)NC(=O)[C@H](CC1CC1)NC(=O)c1cc2cccc(Cl)c2[nH]1 | CYP3A4 | time-dependent inhibitor | human liver microsomes | together with: midazolam 1'-hydroxylation | kinact | 0.00103 s⁻¹ |
| CC(C)c1c(C(=O)Nc2ccccc2)c(-c2ccccc2)c(-c2ccc(F)cc2)n1CC[C@@H]1C[C@@H](O)CC(=O)O1 | CYP3A4 S18F | substrate, HPLC | nanodiscs with rat CPR | pH 7.4, 37 °C, 2 substrate molecules bound | product formation rate | 41 min⁻¹ |
| COc1cc(O)c2c(c1)C(=O)c1cc(C)cc(O)c1C2=O | CYP3A4 | enzyme activity, inhibitor | human, liver microsomes | with preincubation | kinact | 0.000817 s⁻¹ |
| C#C[C@]1(O)CC[C@H]2[C@@H]3CCC4=CC(=O)CC[C@@H]4[C@H]3CC[C@@]21CC | CYP3A4 |  | human, plasma | oral, dose not given, oral contraceptive, day 21, together with: EDP-305 2.5 mg | AUC(0-t) | 74.8 ng·h/mL |
| COc1cc(Sc2c(C3CCCCC3)[nH]c3ccccc23)cc(OC)c1OC | CYP3A4 | enzyme activity, inhibitor, fluorescence |  | 1 µM, 30 min, pH 7.4 | inhibition | 57% |

A few entries again:
| SMILES | target | test | test system | conditions | measurement | result |
| --- | --- | --- | --- | --- | --- | --- |
| COc1cc2c(Oc3ccc4[nH]c(C)cc4c3F)ccnc2cc1OCC1(N)CC1 | CYP3A4 | substrate |  | 1 µM, 60 min, pH 7.4, 37 °C | intrinsic clearance | 0.32 µL/min/pmol |
